Results gathered from unrelated publications.
Compare with care: the assays were run in different laboratories.
Organism: Klebsiella pneumoniae

`CCCCCCCC(=O)N[C@@H](CCN)C(=O)N[C@H](C(=O)N[C@@H](CCN)C(=O)N[C@H]1CCNC(=O)[C@H]([C@@H](C)O)NC(=O)[C@H](CCN)NC(=O)[C@H](CCN)NC(=O)[C@H](Cc2ccccc2)NC(=O)[C@@H](CCC(C)C)NC(=O)[C@H](CCN)NC1=O)[C@@H](C)O` has an MIC of 0.5 to 4 µg/mL (broth microdilution; ATCC 13883, colistin-susceptible).
`CC[C@H](C)[C@H](NC(=O)[C@H](CCCNC(=N)N)NC(=O)[C@H](CC(=O)O)NC(=O)[C@H](CCCNC(=N)N)NC(=O)[C@H](CC(C)C)NC(=O)[C@H](CC(N)=O)NC(=O)[C@H](CCCNC(=N)N)NC(=O)[C@@H](N)Cc1ccccc1)C(=O)N[C@@H](CCCCN)C(=O)N[C@@H](CC(N)=O)C(=O)N[C@@H](CCCCN)C(=O)N[C@@H](Cc1ccccc1)C(=O)N[C@@H](CCC(=O)O)C(=O)N[C@@H](CC(N)=O)C(=O)N[C@@H](C)C(=O)N[C@@H](CC(C)C)C(=O)N[C@@H](CCCCN)C(=O)N[C@@H](CC(N)=O)C(=O)N[C@H](C(=O)N[C@H](C(=O)N[C@@H](CC(N)=O)C(=O)N[C@@H](CCCCN)C(=O)N[C@@H](CC(C)C)C(=O)N[C@@H](Cc1ccccc1)C(=O)N1CCC[C@H]1C(=O)O)[C@@H](C)CC)C(C)C` gave an MIC of 20.7 µM (broth microdilution; ATCC 43816).
`N=C(N)NCCC[C@@H]1NC(=O)[C@H](CCCNC(=N)N)NC(=O)[C@@H](CCCNC(=N)N)NC(=O)[C@@H](CCCNC(=N)N)NC(=O)[C@@H](C(c2ccccc2)c2ccccc2)NC(=O)[C@H](Cc2c[nH]c3ccccc23)NC(=O)[C@@H](C(c2ccccc2)c2ccccc2)NC1=O` has an MIC of 32 µg/mL (ATCC 700603, ESBL SHV-18).
For `CC1(C)[C@H](NC(=O)/C(=N\OCc2c(Cl)cccc2Cl)c2csc(N)n2)C(=O)N1OS(=O)(=O)O`, the MIC was 4 µg/mL (agar dilution; 09-20, NDM-1).
The MIC of `CC[C@H](C)[C@H](NC(=O)[C@@H](CCCNC(=N)N)NC(=O)[C@H](CCCNC(=N)N)NC(=O)[C@H](CC(=O)O)NC(=O)[C@H](Cc1c[nH]c2ccccc12)NC(=O)[C@H](CCCNC(=N)N)NC(=O)[C@@H]1CCCN1C(=O)[C@H](CCCNC(=N)N)NC(=O)[C@@H]1CCCN1C(=O)[C@H](CC(C)C)NC(=O)[C@H](Cc1ccc(O)cc1)NC(=O)[C@@H]1CCCN1C(=O)[C@@H]1CCCN1C(=O)[C@H](CCCCN)NC(=O)[C@H](CC(=O)O)NC(=O)[C@@H](N)C(C)C)C(=O)N[C@@H](Cc1ccc(O)cc1)C(=O)N[C@@H](CC(N)=O)C(=O)N[C@H](CCCNC(=N)N)C(N)=O` is reported as 4 µg/mL (broth microdilution; DSM 681; 18 h, 37 °C, 25% MHB2).
With `CC[C@H](C)[C@H](NC(=O)[C@H](CCCCN)NC(=O)[C@H](CCCNC(=N)N)NC(=O)[C@H](Cc1c[nH]c2ccccc12)NC(=O)[C@@H](NC(=O)[C@H](CC(N)=O)NC(=O)[C@H](CCCNC(=N)N)NC(=O)[C@@H](NC(=O)[C@H](CCCNC(=N)N)NC(=O)[C@H](CC(N)=O)NC(=O)[C@H](CCCNC(=N)N)NC(=O)[C@H](CC(C)C)NC(=O)[C@H](CCCNC(=N)N)NC(=O)[C@H](CCCNC(=N)N)NC(=O)[C@H](Cc1ccccc1)NC(=O)[C@H](CCCNC(=N)N)NC(=O)CN)[C@@H](C)CC)[C@@H](C)CC)C(=O)NCC(=O)N1CCC[C@H]1C(=O)N[C@H](C(=O)N[C@@H](C)C(=O)NCC(=O)N1CCC[C@H]1C(=O)N[C@@H](CC(C)C)C(=O)N[C@H](C(=O)N[C@@H](CO)C(=O)N[C@@H](CCCNC(=N)N)C(=O)N[C@@H](Cc1ccccc1)C(=O)NCC(=O)O)[C@@H](C)CC)[C@@H](C)CC` the MIC was 16 µg/mL (CLSI agar dilution; ATCC 13883; 20 h, 37 °C).
The MIC of `CC[C@H](C)[C@H](NC(=O)[C@@H](CCCNC(=N)N)NC(=O)[C@H](CCCNC(=N)N)NC(=O)[C@@H]1CCCN1C(=O)[C@@H]1CCCN1C(=O)[C@H](CCCNC(=N)N)NC(=O)[C@H](Cc1c[nH]c2ccccc12)NC(=O)[C@H](CCCNC(=N)N)NC(=O)[C@@H]1CCCN1C(=O)[C@H](CC(C)C)NC(=O)[C@H](Cc1ccc(O)cc1)NC(=O)[C@@H]1CCCN1C(=O)[C@@H]1CCCN1C(=O)[C@H](CCCCN)NC(=O)[C@H](CC(=O)O)NC(=O)[C@@H](N)C(C)C)C(=O)N[C@@H](Cc1ccc(O)cc1)C(=O)N[C@@H](CC(N)=O)C(=O)N[C@H](CCCNC(=N)N)C(N)=O` is reported as 4 µg/mL (broth microdilution; DSM 681; 18 h, 37 °C, 25% MHB2).
The MIC of `COc1ccc2ccc(O)c(/C=N/[C@H]3CCCC[C@H]3/N=C/c3cc(C(C)(C)C)ccc3O)c2c1` is reported as > 40 µM (bacterial growth, broth microdilution; carbapenem-resistant clinical isolate).
With `CC1(C)[C@H](NC(=O)/C(=N\OCC(=O)N2CCC(C(=O)O)CC2)c2csc(N)n2)C(=O)N1OS(=O)(=O)O` the MIC was > 64 µg/mL (agar dilution; 2146, NDM-1).
With `CC[C@H](C)[C@H](NC(=O)[C@H](C)NC(=O)[C@@H](NC(=O)[C@H](CC(=O)O)NC(=O)[C@H](CCCCN)NC(=O)[C@H](CO)NC(=O)[C@@H](NC(=O)[C@H](CC(N)=O)NC(=O)[C@H](C)NC(=O)[C@@H](NC(=O)[C@H](CCC(=O)O)NC(=O)[C@H](CCCCN)NC(=O)[C@@H](NC(=O)[C@@H](NC(=O)[C@H](Cc1c[nH]cn1)NC(=O)[C@H](CCCCN)NC(=O)[C@@H](NC(=O)[C@H](CCCCN)NC(=O)[C@H](CCCCN)NC(=O)[C@@H](NC(=O)[C@H](CC(C)C)NC(=O)[C@H](CCCCN)NC(=O)[C@H](CC(N)=O)NC(=O)[C@H](Cc1ccccc1)NC(=O)[C@H](CCCNC(=N)N)NC(=O)[C@H](CCCCN)NC(=O)[C@H](CCCNC(=N)N)NC(=O)[C@H](Cc1ccccc1)NC(=O)CN)C(C)C)C(C)C)[C@@H](C)O)[C@@H](C)CC)[C@@H](C)O)C(C)C)C(C)C)C(=O)N[C@H](C(=O)N[C@@H](C)C(=O)NCC(=O)N[C@@H](CO)C(=O)NCC(=O)N[C@H](C(=O)N[C@@H](C)C(=O)N[C@H](C(=O)NCC(=O)N[C@@H](C)C(=O)N[C@@H](C)C(=O)N[C@@H](CCSC)C(N)=O)C(C)C)C(C)C)C(C)C` the MIC was 1 µg/mL (broth microdilution; RKI 19/16, CAMHB with 10% mouse serum; 150 mM NaCl).

A few entries again:
For `CC1(C)[C@H](NC(=O)/C(=N\OCc2c(Cl)cccc2Cl)c2csc(N)n2)C(=O)N1OS(=O)(=O)O`, the MIC was 4 µg/mL (agar dilution; 09-20, NDM-1).
